Earlier results as cited in several papers.
Compare with care: the assays were run in different laboratories.
Chain of UniProt Q86Z02 (whole entry, looked up): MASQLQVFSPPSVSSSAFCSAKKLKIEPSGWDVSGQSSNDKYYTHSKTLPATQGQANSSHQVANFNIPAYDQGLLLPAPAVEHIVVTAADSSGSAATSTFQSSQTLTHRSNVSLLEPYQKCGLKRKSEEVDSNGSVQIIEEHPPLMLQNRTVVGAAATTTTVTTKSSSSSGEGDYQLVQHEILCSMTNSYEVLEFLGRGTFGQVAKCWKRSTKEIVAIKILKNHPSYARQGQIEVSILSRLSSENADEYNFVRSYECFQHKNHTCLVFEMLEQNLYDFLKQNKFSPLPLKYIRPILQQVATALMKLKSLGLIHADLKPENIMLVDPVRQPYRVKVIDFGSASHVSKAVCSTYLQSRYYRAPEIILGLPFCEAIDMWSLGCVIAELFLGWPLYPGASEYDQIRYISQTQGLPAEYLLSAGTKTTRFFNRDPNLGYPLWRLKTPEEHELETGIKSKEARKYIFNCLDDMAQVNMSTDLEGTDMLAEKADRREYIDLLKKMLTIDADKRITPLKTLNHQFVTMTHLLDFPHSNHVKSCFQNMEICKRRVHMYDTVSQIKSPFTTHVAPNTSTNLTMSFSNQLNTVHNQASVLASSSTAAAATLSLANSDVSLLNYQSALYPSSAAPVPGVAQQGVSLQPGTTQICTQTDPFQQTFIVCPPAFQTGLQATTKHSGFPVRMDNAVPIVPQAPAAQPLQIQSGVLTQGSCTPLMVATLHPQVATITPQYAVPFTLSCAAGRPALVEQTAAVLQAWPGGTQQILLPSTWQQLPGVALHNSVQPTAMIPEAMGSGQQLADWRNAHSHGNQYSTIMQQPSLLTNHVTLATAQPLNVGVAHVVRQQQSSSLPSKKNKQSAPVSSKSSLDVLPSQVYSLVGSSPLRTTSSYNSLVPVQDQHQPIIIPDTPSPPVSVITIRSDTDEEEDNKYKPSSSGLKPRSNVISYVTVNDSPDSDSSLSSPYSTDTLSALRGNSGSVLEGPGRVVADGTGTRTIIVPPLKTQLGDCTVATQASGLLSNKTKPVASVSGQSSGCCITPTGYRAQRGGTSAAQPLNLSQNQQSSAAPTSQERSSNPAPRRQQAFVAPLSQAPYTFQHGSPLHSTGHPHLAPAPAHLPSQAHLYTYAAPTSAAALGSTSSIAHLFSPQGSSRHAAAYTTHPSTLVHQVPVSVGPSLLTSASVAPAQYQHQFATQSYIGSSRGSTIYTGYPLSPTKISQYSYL

`CNCc1cc(-c2ccccc2F)n(S(=O)(=O)c2cccnc2)c1` gave an AUC(0-inf) of 327 ng·h/mL (human; 30 mg, multiple dose).
With `C1=C/COCc2cc(ccc2OCCN2CCCC2)Nc2nccc(n2)-c2cccc(c2)COC/1` the AUC(0-inf) increase was 80% (human; dose not given, together with: clarithromycin; relative to: without clarithromycin).
`CCOc1c([C@H](C)n2nc(C)c3c(N)ncnc32)cc(Cl)c(F)c1[C@@H]1CNC(=O)C1` has an AUC(0-inf) decrease of 77% (human; oral, 20 mg once daily, together with: rifampin; relative to: compound alone).
With `CN1CCc2nc(C(=O)N[C@@H]3C[C@@H](C(=O)N(C)C)CC[C@@H]3NC(=O)C(=O)Nc3ccc(Cl)cn3)sc2C1` the AUC(0-inf) increase was 32% (human, mild renal impairment; dose not given, eGFR above 50 mL/min; relative to: normal renal function).
With `C[C@@H](Oc1ccc(S(C)(=O)=O)cc1C(=O)N1C[C@@H]2C[C@]2(c2cc(C(F)(F)F)on2)C1)C(F)(F)F` the AUC(0-inf) ratio was 5.97 (human; 25 mg single, together with: itraconazole; relative to: with over without itraconazole).
`C[C@H]1CO[C@@H]2Cn3cc(C(=O)NCc4ccc(F)cc4F)c(=O)c(O)c3C(=O)N12` gave an AUC(0-inf) ratio of 1.15 (human; oral, two 5 mg tablets, first study; relative to: fed over fasted).
With `CO[C@]1(C(=O)N[C@@H](C)c2ccc(-n3cc(F)cn3)nc2)CC[C@H](c2nc(C)cc(Nc3cc(C)[nH]n3)n2)CC1` the AUC(0-inf) increase was 251% (healthy human; dose not given, together with: itraconazole; relative to: compound alone).
For `Cn1c(Cn2ccc(C(F)(F)F)c(Oc3cc(Cl)cc(C#N)c3)c2=O)n[nH]c1=O`, the AUC(0-inf) increase was 16% (human; dose not given, together with: high-fat meal; relative to: fasted).
With `Cc1cc(C)c(CNC(=O)c2cc(Cl)c3c(c2C)O[C@@](C)([C@H]2CC[C@H](N(C)C)CC2)O3)c(=O)[nH]1` the AUC(0-inf) was 1900 ng·h/mL (human; 50 mg).
With `Cc1nsc(-c2nnc3n2CCN(C(=O)c2ccc(F)cc2)[C@@H]3C)n1` the AUC(0-inf) was 1020 ng·h/mL (human; oral, 20 mg, day 1, fed).
`Nc1cc(C(F)(F)F)c(-c2nc(N3CCOCC3)nc(N3CCOCC3)n2)cn1` gave a remaining activity of 76% (HIPK1 (Homo sapiens, UniProt Q86Z02); enzyme activity; 10 µM; relative to: untreated).
With `N#CCNC(=O)c1ccc(-c2ccnc(Nc3ccc(N4CCOCC4)cc3)n2)cc1` the AUC(0-inf) increase was 57% (human; dose not given, together with: single-dose rifampicin).
The AUC(0-inf) increase of `CN1CCC(COc2cnc(-c3cccc(Cn4nc(-c5cccc(C#N)c5)ccc4=O)c3)nc2)CC1` is reported as 1.6 fold (human; dose not given, together with: meal, high-fat, high-calorie; relative to: fasted state).

Excerpt of the above:
With `Cc1cc(C)c(CNC(=O)c2cc(Cl)c3c(c2C)O[C@@](C)([C@H]2CC[C@H](N(C)C)CC2)O3)c(=O)[nH]1` the AUC(0-inf) was 1900 ng·h/mL (human; 50 mg).
